Measured values of several laboratories.
Protocols differ between the studies behind these lines. Values joined by “and” are separate records of one study, mostly repeats; a detail may differ.

SMILES | assay | system | conditions | how to read | measurement | result
CO[C@H]1C[C@@H]2CC[C@@H](C)[C@@](O)(O2)C(=O)C(=O)N2CCCC[C@H]2C(=O)O[C@H]([C@H](C)C[C@@H]2CC[C@@H](O)[C@H](OC)C2)CC(=O)[C@H](C)/C=C(\C)[C@@H](O)[C@@H](OC)C(=O)[C@H](C)C[C@H](C)/C=C/C=C/C=C/1C | oral glucose tolerance test | healthy adult horses | dose not given, 60 min, baseline before treatment | – | blood glucose | 148 mg/dL
O=C(O)CN1Cc2cccc(n2)CN(CC(=O)O)Cc2cccc(n2)C1 | – | HEPES buffer with NaCl | 33 °C, 1.4 T | – | r1 relaxivity | 2.5 mM⁻¹ s⁻¹
Cc1n[nH]c2ccc(-c3cc(OC[C@@H](N)Cc4ccccc4)cnc3-c3ccoc3)cc12 | kinase binding, competitor, MIB/MS competition, measured: CEK1 | Candida albicans cell lysate | 100 nM | baseline: DMSO | log2 fold change | -0.256
NC(=O)c1cnc2[nH]ccc2c1N[C@@H]1[C@@H]2CC3C[C@H]1C[C@@](O)(C3)C2 | flow cytometry | Japanese healthy men, blood | oral, 100 mg twice daily, 72 h after day 7 dose | baseline: baseline | CD8+CD28+ naive T-cell change | -4.38%
CN(C)C(=O)c1cc2cnc(Nc3ccc(N4CCNCC4)cn3)nc2n1C1CCCC1 | RNA-seq GSEA, measured: HALLMARK_FATTY_ACID_METABOLISM gene set | MB002 tumour | concentration not given | baseline: vehicle, direction not given | enrichment score | 0.353
CO[C@@H]1[C@@H](OC(N)=O)[C@@H](O)[C@H](Oc2ccc3c(O)c(NC(=O)c4ccc(O)c(CC=C(C)C)c4)c(=O)oc3c2C)OC1(C)C | – | Brca1 wild-type MEFs, mouse | 200 µM | – | colony survival | 21.4% and 6.98% and 1.52% and 14.1% and 24.8%
C[C@H](Oc1ccc(Br)cc1-c1ccon1)C(=O)O | muscle velocity recovery cycle | human, tibialis anterior muscle | 600 mg once daily, first response peak at 15 Hz, multiple ascending dose | – | difference from placebo | 3.59%
C[C@H]1O[C@@H](O[C@H]2CC[C@@]3(C)[C@@H](CC[C@]4(C)[C@@H]3C=C[C@]35OC[C@@]6(CCC(C)(C)C[C@H]63)[C@@H](O)C[C@]54C)[C@]2(C)CO)[C@H](O)[C@@H](O[C@@H]2O[C@H](CO)[C@@H](O)[C@H](O)[C@H]2O)[C@H]1O | Western blot, measured: PGC-1α | chronic-plus-binge ethanol-fed mice, liver | dose not given, dose level -H, unit not given | baseline: β-actin | protein level | 1.04 and 0.534 and 1.07
CC(C)NCC(O)c1ccc(O)c(O)c1 (stereo not drawn) | – | ventricular cardiomyocytes, C57BL/6 mouse | dose not given, 0.512 s | – | sarcomere length | 1.5 µm
O=C(Nc1nc(-c2ccccc2)ns1)c1cccs1 | CoA-CPM signal reduction, CPM fluorescence thiol | cell-free biochemical | assay interference counter-screen, with: CoA replacing acetyl-CoA | – | IC50 | > 125 µM
Cn1cc(Nc2nccc(-c3ccc4c(c3)CN(C3COC3)CC[C@H]4NC(=O)c3cn(C(C)(C)C)nn3)n2)cn1 | measured: Phospholipase C Signaling | splenic B cells, mouse | in vivo, 30 mg/kg, IgD-activated B cells | baseline: vehicle, positive = activation | pathway activation z-score | 3.66
O=C(O)CNC(=O)Cc1ccccc1 | – | ventricular cardiomyocytes, C57BL/6 mouse | dose not given, 0.58 s | – | sarcomere length | 1.64 µm
COc1c(Nc2cc(C(F)(F)F)cc(C(F)(F)F)c2)c(=O)c1=O | HPLC-MS | – | pH 10.2, with: 50 mM N-α-acetyl-lysine | – | pseudo-first-order rate constant | 6.1 h⁻¹
CC[C@H](C)/C=C/C(=O)N1CCC[C@H]1C(=O)N[C@@H](CCC1CCCCC1)C(=O)N[C@H](C(=O)NC(C)(C)C(=O)N[C@@H](CC(C)C)C(=O)N[C@@H](CC(C)C)C(=O)NC(C)(C)C(=O)NC(C)(C)C(=O)NCCC(=O)N[C@@H](C)CN(C)C)[C@H](O)C(C)C | – | small unilamellar vesicles | concentration not given | – | calcein leakage | 28.3%
O=C(Cc1ccc(-c2ccccc2)cc1)NC1CS(=O)(=O)c2ccccc21 (stereo not drawn) | CoA-CPM signal reduction, CPM fluorescence thiol | cell-free biochemical | assay interference counter-screen, with: CoA replacing acetyl-CoA | – | IC50 | > 125 µM

A few entries again:
SMILES | assay | system | conditions | how to read | measurement | result
Cc1n[nH]c2ccc(-c3cc(OC[C@@H](N)Cc4ccccc4)cnc3-c3ccoc3)cc12 | kinase binding, competitor, MIB/MS competition, measured: CEK1 | Candida albicans cell lysate | 100 nM | baseline: DMSO | log2 fold change | -0.256
COc1c(Nc2cc(C(F)(F)F)cc(C(F)(F)F)c2)c(=O)c1=O | HPLC-MS | – | pH 10.2, with: 50 mM N-α-acetyl-lysine | – | pseudo-first-order rate constant | 6.1 h⁻¹
